# Results collected from several papers.
# Every numbered part comes from another study and shows a few of its results, in no order. Several values in a cell are separate wells, animals, samples, runs or records.

# Series 1
# Target: Mitogen-activated protein kinase kinase kinase 11 (MAP3K11, Homo sapiens, UniProt Q16584)
# Chain of UniProt Q16584 (whole entry, looked up): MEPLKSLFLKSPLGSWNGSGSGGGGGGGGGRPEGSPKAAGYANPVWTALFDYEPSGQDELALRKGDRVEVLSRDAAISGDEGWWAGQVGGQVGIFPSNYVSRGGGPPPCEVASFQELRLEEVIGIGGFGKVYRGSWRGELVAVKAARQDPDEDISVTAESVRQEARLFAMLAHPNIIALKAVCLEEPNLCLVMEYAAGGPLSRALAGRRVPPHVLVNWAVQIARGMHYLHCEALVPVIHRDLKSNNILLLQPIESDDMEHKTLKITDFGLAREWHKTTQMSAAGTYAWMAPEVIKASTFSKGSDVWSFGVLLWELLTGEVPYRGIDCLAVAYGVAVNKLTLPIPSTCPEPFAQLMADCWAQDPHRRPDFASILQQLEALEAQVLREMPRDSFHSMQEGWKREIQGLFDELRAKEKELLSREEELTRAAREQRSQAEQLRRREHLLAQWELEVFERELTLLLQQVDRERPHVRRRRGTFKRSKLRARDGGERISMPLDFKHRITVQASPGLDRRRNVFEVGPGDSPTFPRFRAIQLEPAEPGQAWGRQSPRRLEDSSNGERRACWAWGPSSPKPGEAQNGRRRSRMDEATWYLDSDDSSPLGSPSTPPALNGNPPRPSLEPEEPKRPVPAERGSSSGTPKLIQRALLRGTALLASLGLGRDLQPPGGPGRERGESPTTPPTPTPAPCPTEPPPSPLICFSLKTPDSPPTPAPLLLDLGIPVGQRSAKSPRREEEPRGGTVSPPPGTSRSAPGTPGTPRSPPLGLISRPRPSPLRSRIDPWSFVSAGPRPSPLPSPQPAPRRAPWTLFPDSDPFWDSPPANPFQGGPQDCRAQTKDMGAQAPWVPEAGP
# Read-out: enzyme activity
# Mode: inhibitor
# Tested at: 0.5 µM
# Reference: control
SMILES,remaining activity [%]
Oc1ccc(Nc2nc(-c3ccc(Cl)cc3)cs2)cc1,95.3
CC(C)(C)n1nc(Cc2cccc3ccccc23)c2c(N)ncnc21,94.8
CC#CC(=O)Nc1cc2c(Nc3ccc(F)c(Cl)c3)ncnc2cn1,99.3
COc1cc(Nc2c(C#N)cnc3cc(OCCCN4CCN(C)CC4)c(OC)cc23)c(Cl)cc1Cl,13.5
O=C1NC(=O)C(c2c[nH]c3ccccc23)=C1c1c[nH]c2ccccc12,68.7
Nc1nccc(-c2c(-c3ccc(F)cc3)ncn2C2CCNCC2)n1,96.3
Cc1cc(Nc2nc(-c3ccccc3)nc3ccccc23)n[nH]1,18.1
NC(=O)c1ccc(N(C(N)=O)c2c(F)cccc2F)nc1-c1ccc(F)cc1F,105
Nc1nc(Nc2ccc(S(N)(=O)=O)cc2)nn1C(=O)c1c(F)cccc1F,47.2
CSc1nc(-c2ccnc(N[C@@H](C)c3ccccc3)c2)c(-c2ccc(F)cc2)[nH]1 (racemic),101
CC(=O)c1ccc(N2CCOCC2)cc1O,94.8

# Series 2
# Target: Prothrombin, mature alpha-thrombin (F2, Homo sapiens, UniProt P00734)
# Technique: aptamer microarray, sandwich
# Molecule type: DNA with 2'F-ANA
# Medium: in vitro
# Tested at: 200 nM
# Notes: whole 15-mer aptamer, many near background
# With: Cy3 exosite-II aptamer, 400 nM
# Reading: higher = stronger binding
# Sequence: GGTTGGTGTGGTTGG
Modification,mean fluorescence intensity [a.u.]
2'F-ANA at 5 7 8 11 13 14 15,47.9
2'F-ANA at 1 4 6 8 9 11 13 14,49.3
2'F-ANA at 1 3 4 5 6 9 10 14 15,46.6
2'F-ANA at 1 2 3 5 8 11 13 14,45.3
2'F-ANA at 1 2 3 7 10 11 12 13,85.5
2'F-ANA at 1 2 3 10 11 12 13 14 15,55.3
2'F-ANA at 2 6 7 8 9 10 11 12 13 14,85.8
2'F-ANA at 2 4 8 12 13 15,494

# Series 3
# Organism: Sarcocystis neurona
# Read-out: parasite growth
# Tested at: 10 µM
# Time: 96 h
# Notes: first screen
SMILES,inhibition [%]
COc1ccccc1OCC(O)COC(N)=O (centres unmarked),-9.4
CN(C)CCOc1ccc(/C(=C(/CCCl)c2ccccc2)c2ccccc2)cc1,1.1
O=c1c(O[C@@H]2O[C@H](CO)[C@@H](O)[C@H](O)[C@H]2O)c(-c2ccc(O)c(O)c2)oc2cc(O)cc(O)c12,-11.6
CCC(=O)NS(=O)(=O)c1ccc(-c2c(-c3ccccc3)noc2C)cc1,-0.6

# Further values, each from its own experiment
Structure (SMILES),tested on,test,system,setting,scale,quantity,result
CC(=O)N[C@@H](Cc1c[nH]c2ccccc12)C(=O)N[C@@H](CCC(=O)C=[N+]=[N-])C(=O)OC(C)C,,UPLC-MS/MS,"EL4 tumor, C57BL/6 CES1-/- mice, tumor","subcutaneous, 0.3 mg/kg DON equivalent daily, 5 days",higher = more metabolite,putrescine level,4.97e+06 a.u. and 4.96e+06 a.u. and 4.85e+06 a.u. and 3.64e+06 a.u. and 5.41e+06 a.u. and 3.77e+06 a.u.
COc1ccc(-c2c(Nc3ccccn3)[nH]c3c(C4=CCCCC4)c(-c4ccccc4)nn3c2=O)cc1,,,"human, plasma","oral, 50 mg QD",,AUC(tau) extrapolated share,0%
CCC[C@H]1NC(=O)[C@H](Cc2cc(Cl)ccc2-c2cnn(C)c2)N(C)C(=O)[C@H](CC(C)C)NC(=O)[C@@H](N(C)C(=O)[C@H](CCCCN2CCOCC2)NC(=O)[C@@H](c2cccnc2)C2CCCCC2)CCCCNC1=O,NCI-H446,Vi-Cell counting,,"124 nM, 5 days, with: Myt1 inhibitor 1000 nM",reference: DMSO,cell growth,47.4% and 59.2%

# For quick reference, copied from above (series 1):
SMILES,remaining activity [%]
Oc1ccc(Nc2nc(-c3ccc(Cl)cc3)cs2)cc1,95.3
CSc1nc(-c2ccnc(N[C@@H](C)c3ccccc3)c2)c(-c2ccc(F)cc2)[nH]1 (racemic),101
CC(=O)c1ccc(N2CCOCC2)cc1O,94.8
Cc1cc(Nc2nc(-c3ccccc3)nc3ccccc23)n[nH]1,18.1
